Experimental data of several laboratories.
Protocols differ between the studies behind these lines. “And” joins repeats or separate records; there may be more than shown. ± gives the spread as reported.
DRD5: D(1B) dopamine receptor (DRD5, Homo sapiens, UniProt P21918)
Chain of UniProt P21918 (whole entry, looked up): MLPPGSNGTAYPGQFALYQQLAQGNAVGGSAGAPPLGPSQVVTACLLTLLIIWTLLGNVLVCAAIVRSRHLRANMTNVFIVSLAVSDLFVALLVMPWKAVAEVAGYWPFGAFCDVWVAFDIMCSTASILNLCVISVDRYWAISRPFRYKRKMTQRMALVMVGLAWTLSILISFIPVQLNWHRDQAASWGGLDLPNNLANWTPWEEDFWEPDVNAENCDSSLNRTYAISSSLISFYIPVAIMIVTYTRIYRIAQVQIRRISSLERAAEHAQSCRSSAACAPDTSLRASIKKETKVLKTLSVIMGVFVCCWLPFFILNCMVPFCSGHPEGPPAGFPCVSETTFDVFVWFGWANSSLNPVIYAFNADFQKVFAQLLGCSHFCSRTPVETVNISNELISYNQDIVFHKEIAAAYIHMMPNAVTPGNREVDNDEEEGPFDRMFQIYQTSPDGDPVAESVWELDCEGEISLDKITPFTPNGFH
AHSG asialo: Alpha-2-HS-glycoprotein, asialo (AHSG, Bos taurus, UniProt P12763)
Chain of UniProt P12763 (whole entry, looked up): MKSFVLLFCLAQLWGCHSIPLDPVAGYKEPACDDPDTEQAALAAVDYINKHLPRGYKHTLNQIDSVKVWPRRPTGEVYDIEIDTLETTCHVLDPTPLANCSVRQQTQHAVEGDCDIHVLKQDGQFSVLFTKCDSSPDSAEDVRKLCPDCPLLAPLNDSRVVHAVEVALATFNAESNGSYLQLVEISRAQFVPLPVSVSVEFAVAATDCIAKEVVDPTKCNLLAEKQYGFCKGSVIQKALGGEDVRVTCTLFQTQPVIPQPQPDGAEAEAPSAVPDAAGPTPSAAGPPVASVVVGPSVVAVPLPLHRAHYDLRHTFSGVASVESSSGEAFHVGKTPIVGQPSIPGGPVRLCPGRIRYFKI
Nuclear receptor subfamily 2 group C member 2 ligand-binding domain: Nuclear receptor subfamily 2 group C member 2, ligand-binding domain (Homo sapiens, UniProt P49116)
Chain of UniProt P49116 (whole entry, looked up): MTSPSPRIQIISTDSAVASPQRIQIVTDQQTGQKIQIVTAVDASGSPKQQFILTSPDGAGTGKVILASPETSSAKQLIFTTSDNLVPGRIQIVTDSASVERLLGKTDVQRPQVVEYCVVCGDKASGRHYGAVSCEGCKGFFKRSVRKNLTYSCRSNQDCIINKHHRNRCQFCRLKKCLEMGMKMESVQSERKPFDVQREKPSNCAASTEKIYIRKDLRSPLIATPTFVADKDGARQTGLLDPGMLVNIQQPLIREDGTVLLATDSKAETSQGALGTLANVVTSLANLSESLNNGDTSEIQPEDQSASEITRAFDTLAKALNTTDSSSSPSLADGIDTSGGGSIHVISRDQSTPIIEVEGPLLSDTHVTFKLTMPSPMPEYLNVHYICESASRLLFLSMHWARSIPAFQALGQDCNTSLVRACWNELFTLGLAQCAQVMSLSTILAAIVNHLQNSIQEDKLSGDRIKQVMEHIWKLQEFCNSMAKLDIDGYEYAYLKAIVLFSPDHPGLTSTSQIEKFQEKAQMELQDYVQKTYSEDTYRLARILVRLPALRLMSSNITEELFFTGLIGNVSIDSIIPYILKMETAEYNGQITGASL
T1: RNA aptamer; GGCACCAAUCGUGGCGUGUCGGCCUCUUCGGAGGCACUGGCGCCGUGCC
Chain of UniProt O76090 (whole entry, unmodified, looked up): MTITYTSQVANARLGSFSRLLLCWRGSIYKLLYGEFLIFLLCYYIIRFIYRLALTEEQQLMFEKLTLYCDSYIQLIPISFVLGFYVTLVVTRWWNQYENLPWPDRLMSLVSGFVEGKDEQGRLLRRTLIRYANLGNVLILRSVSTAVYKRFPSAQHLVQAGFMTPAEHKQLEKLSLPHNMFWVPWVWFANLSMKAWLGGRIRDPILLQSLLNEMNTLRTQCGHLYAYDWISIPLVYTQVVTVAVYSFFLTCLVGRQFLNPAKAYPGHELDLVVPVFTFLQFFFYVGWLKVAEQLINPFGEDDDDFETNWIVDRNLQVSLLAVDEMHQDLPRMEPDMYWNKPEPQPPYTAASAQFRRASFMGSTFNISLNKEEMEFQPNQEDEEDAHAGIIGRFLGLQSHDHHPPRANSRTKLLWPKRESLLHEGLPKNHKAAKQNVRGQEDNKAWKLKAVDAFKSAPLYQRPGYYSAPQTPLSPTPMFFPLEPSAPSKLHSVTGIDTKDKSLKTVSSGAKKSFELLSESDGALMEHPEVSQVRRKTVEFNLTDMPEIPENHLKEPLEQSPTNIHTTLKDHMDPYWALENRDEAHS
Chain of UniProt P11247 (whole entry, looked up): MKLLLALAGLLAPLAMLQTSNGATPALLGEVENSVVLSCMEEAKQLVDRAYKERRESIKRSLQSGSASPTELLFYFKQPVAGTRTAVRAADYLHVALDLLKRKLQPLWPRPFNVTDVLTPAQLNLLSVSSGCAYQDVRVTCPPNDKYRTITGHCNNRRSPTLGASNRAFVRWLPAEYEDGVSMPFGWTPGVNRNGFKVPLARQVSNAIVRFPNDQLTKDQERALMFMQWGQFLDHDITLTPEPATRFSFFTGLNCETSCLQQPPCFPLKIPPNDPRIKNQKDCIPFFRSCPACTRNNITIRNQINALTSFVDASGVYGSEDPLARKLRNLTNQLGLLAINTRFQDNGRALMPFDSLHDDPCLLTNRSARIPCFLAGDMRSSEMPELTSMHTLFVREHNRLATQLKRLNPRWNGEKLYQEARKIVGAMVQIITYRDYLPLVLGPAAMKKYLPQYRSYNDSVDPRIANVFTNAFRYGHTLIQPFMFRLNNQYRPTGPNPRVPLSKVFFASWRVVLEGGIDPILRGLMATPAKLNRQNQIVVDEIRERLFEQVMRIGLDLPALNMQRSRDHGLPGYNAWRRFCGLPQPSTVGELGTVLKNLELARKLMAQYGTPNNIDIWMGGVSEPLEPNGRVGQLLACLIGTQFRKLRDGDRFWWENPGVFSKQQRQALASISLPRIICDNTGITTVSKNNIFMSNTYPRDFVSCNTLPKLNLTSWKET
Chain of UniProt O14980 (whole entry, looked up): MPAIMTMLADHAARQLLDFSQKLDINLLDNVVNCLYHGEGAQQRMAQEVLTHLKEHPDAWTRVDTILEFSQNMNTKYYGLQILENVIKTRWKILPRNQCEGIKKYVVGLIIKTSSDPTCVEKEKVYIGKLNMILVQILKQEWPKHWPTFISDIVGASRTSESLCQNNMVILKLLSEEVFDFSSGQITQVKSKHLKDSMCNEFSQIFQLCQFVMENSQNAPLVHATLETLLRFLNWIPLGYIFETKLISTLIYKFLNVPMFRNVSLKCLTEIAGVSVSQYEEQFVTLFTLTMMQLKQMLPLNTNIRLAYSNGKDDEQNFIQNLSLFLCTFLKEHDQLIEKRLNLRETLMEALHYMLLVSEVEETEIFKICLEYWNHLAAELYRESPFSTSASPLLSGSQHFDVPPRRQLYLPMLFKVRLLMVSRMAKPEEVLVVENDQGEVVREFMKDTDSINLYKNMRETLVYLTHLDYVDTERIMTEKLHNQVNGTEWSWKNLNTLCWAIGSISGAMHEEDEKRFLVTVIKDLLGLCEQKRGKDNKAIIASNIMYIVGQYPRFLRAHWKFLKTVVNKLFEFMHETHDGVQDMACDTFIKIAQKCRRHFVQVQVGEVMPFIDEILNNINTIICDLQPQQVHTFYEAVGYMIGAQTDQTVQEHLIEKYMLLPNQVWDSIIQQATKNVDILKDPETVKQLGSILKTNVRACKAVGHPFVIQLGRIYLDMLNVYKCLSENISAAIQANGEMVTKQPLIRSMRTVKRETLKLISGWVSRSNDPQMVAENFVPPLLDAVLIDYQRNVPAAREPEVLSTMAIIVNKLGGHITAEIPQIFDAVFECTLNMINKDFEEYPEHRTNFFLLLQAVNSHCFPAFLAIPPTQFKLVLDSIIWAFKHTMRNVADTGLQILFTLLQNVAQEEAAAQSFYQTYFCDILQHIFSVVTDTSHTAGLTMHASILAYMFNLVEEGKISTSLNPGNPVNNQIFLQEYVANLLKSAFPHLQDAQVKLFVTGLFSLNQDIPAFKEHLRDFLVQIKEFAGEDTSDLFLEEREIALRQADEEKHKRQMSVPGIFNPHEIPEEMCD
Chain of UniProt Q16774 (whole entry, unmodified, looked up): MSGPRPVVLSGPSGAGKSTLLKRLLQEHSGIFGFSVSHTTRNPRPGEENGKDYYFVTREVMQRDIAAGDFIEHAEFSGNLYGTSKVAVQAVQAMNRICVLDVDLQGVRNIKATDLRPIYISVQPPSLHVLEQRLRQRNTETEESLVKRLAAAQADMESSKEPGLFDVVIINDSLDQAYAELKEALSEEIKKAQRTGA
Chain of UniProt Q62351 (whole entry, looked up): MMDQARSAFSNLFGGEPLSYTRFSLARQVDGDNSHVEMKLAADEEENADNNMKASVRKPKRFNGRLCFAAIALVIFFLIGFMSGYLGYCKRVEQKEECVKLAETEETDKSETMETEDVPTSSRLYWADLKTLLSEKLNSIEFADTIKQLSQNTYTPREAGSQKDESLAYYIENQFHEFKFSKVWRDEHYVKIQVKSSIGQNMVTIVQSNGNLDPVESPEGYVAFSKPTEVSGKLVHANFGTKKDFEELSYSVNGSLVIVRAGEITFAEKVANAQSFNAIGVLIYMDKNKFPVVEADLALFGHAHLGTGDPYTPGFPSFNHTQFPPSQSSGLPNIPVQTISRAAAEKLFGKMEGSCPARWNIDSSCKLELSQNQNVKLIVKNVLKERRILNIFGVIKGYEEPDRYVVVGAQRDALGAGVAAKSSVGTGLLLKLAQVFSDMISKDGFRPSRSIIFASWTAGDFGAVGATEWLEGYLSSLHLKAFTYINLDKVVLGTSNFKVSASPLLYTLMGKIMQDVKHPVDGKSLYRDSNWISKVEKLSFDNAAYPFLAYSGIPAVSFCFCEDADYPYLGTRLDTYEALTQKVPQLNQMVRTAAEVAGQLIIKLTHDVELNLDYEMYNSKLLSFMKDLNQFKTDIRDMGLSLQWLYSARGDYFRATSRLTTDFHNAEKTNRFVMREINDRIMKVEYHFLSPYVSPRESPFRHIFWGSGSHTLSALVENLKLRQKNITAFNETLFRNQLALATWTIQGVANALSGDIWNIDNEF

Cc1cccc(N2CC(C(=O)O)CC2=O)c1 (centres unmarked) — log fold enrichment (DCAF1 (Homo sapiens, UniProt Q9Y4B6); binding, affinity selection mass spectrometry; baseline: other proteins in batch): -0.0479
CCCC[C@H]1CN(c2cccc(Cl)c2)C(=O)CN1Cc1cncn1Cc1ccc(Br)cc1 — IC50 (Cryptococcus neoformans farnesyltransferase; enzyme activity, inhibitor, fluorescence; added: 1 µM FPP, 0.5 µM dansylated peptide): 1100 ± 780 nM
CC[C@H](C)[C@@H]1NC(=O)[C@H]([C@@H](C)CC)NC(=O)[C@@H](Cc2ccc(O)cc2)NC(=O)CSC[C@@H](C(N)=O)NC(=O)[C@H](CCCNC(=N)N)NC(=O)[C@H](CCCCN)NC(=O)[C@H](CC(C)C)NC(=O)[C@H](CO)NC(=O)[C@H](CO)NC(=O)[C@H](CC(C)C)NC(=O)[C@H](Cc2ccccc2)NC(=O)[C@H](C(C)C)NC(=O)CNC(=O)[C@H](CC(C)C)NC(=O)[C@@H]2CCCN2C(=O)[C@H]([C@@H](C)O)NC(=O)[C@H](CC(=O)O)NC1=O — ΔH (VPS35/VPS29 (Homo sapiens, UniProt Q96QK1+Q9UBQ0); binding, isothermal titration calorimetry; 25 °C): -10.5 ± 0.4 kcal/mol
O=C(O)C[C@H](O)C[C@H](O)/C=C/c1c(C2CC2)nc2ccccc2c1-c1ccc(F)cc1 — confluence (COS-7; 3 µM, 24 h, 0.1% DMSO, unit not given; baseline: vehicle control): 0.91 ± 0.07
COc1c(O[C@@H]2O[C@H](CO)[C@@H](O)[C@H](O)[C@H]2O)cc2c(c1O)C(=O)c1c(cc(C)c(O)c1OC)C2=O — cell viability (HepaRG co-cultured with HK-2; MTT; 133.33 µM, 24 h; baseline: untreated control): 73.2 ± 6.5%
C[C@@H]1CC[C@]2(C(=O)O)CC[C@]3(C)C(=CC[C@@H]4[C@@]5(C)CC[C@H](O)[C@@](C)(CO)[C@@H]5CC[C@]43C)[C@@H]2[C@]1(C)O — Km (UGT enzymes, human; glucuronidation, substrate; human liver microsomes; range 0.2 to 50 µM): 11.8 ± 0.715 µM
CCN1CCC[C@H]1CNC(=O)c1c(O)c(Cl)cc(Cl)c1OC — log2 fold change (LPAR4 (Homo sapiens, UniProt Q99677); β-arrestin recruitment, TANGO luminescence, refers to: GPR23; concentration not given; baseline: basal luminescence): 0.125
O=c1nc(SCc2cc(F)cc(C(F)(F)F)c2)nc(SCc2ccc3nc(Cl)ccc3c2)[nH]1 — ATP hydrolysis rate (TOP2A (Homo sapiens, UniProt P11388); ATPase activity; 15.6 µM, added: ATP 0.075 mM): 0.602 µM/min and 0.539 µM/min
CC(Nc1nc(N2CCCC2)nc2ccccc12)c1ccccc1 (centres unmarked) — cells with nuclear reporter (Exportin-1 (XPO1, Homo sapiens, UniProt O14980); nuclear export, high content imaging; HeLa Kyoto reporter; 0.32 µM, 2 h): 2.61% and 2.93% and 4.65%
CC[C@@H]1[C@H](F)C(=O)N[C@@H]1COc1nccc2cc(C(N)=O)c(OC)cc12 — inhibition (MARK2 (Homo sapiens, UniProt Q7KZI7); ATP-site probe binding, ActivX profiling; THP-1 cell lysate; 0.01 mM, Lys2 site): 12.7%
O=C(NC1CCC1)c1ccc2nc(-c3cccc(NS(=O)(=O)NCCN4CCCCC4)c3)cn2c1 — remaining activity (ALK (Homo sapiens, UniProt Q9UM73, C1156Y); enzyme activity; 10 µM): 90%
Nc1ncnc2c1ncn2[C@@H]1O[C@H](COP(=O)(O)CP(=O)(O)OP(=O)(O)O)[C@@H](O)[C@H]1O — specific binding (P2X purinoceptor 1 (P2RX1, Homo sapiens, UniProt P51575, E282A); saturation binding; HEK293; 130 nM): 2560 CCPM
CN(CCO)c1ccc(/C=C(\C#N)c2ccc(C#N)cc2)cc1 — Kd (T1, RNA aptamer; fluorescence titration, Hill fit; apparent): 38.8 nM
C[C@H](N)C(=O)N[C@@H](CCCNC(=N)N)C(=O)N[C@H](C(=O)N[C@@H](CCCCN(C)C)C(=O)N[C@@H](CCC(N)=O)C(=O)N[C@H](C(=O)N[C@@H](C)C(=O)N[C@@H](CCCNC(=N)N)C(=O)N[C@@H](CCCCN)C(=O)N[C@@H](CO)C(=O)N[C@H](C(=O)NCC(=O)NCC(=O)N[C@@H](CCCCN)C(=O)N[C@@H](C)C(=O)N[C@@H](Cc1ccc(O)cc1)C(=O)O)[C@@H](C)O)[C@@H](C)O)[C@@H](C)O — binding entropy (Transcriptional regulator ATRX (ATRX, Homo sapiens, UniProt P46100, F284Y/K251R); isothermal titration calorimetry; concentration not given, pH 7.5, 25.0 °C): 0.84 cal/mol/K
CCN(CC)C(=S)S — activity (PTPN22 (Homo sapiens, UniProt Q9Y2R2); enzyme activity; concentration not given, added: DiFMUP): inactive
O=C1OC(c2ccccc2)=N/C1=C\c1cccc(O)c1 — Km (Pancreatic alpha-amylase (Homo sapiens, UniProt P04746); inhibitor, Lineweaver-Burk; 300 ppm, added: starch substrate): 1600 µM
COc1ccccc1N1CCN(CCCCN2CCc3ccccc3C2=O)CC1 — inhibition (DRD5; radioligand binding; concentration not given, added: [3H]SCH23390): 57.1%
NC/C(=C\F)COc1cccc(Cn2c(=S)[nH]c(=O)c3[nH]cnc32)c1 — MPO activity (Myeloperoxidase (Mus musculus, UniProt P11247); mouse, zymosan or thioglycolate peritonitis, peritoneal fluid; 30 mg/kg; baseline: peritonitis vehicle): 159% and 88.8% and 81.6% and 64.5%
CC(C)C[C@@H]1NC(=O)[C@H](C)NC(=O)CNC(=O)[C@H](CC(N)=O)NC(=O)[C@@H]2CCCN2C(=O)[C@H](Cc2ccc(O)cc2)NC(=O)[C@H](CCCNC(=N)N)NC(=O)[C@H](Cc2ccccc2)NC(=O)[C@@H](NC(=O)[C@H](CCCCN)NC(=O)[C@@H]2CCCN2C(=O)[C@H](CO)NC(=O)[C@H](C)NC(=O)[C@@H](N)Cc2ccc(O)cc2)CSSC[C@@H](C(=O)N[C@H](C(N)=O)[C@@H](C)O)NC(=O)[C@H](C)NC1=O — binding stoichiometry (AHSG asialo; isothermal titration calorimetry; concentration not given, pH 7.0, 25 °C, added: asialofetuin): 0.135
CO[C@@H]1[C@@H](OC(N)=O)[C@@H](O)[C@H](Oc2ccc3c(O)c(NC(=O)c4ccc(O)c(CC=C(C)C)c4)c(=O)oc3c2C)OC1(C)C — koff (Nuclear receptor subfamily 2 group C member 2 ligand-binding domain; SPR imaging; 600 nM): 1.96e-05 s⁻¹
Cc1ccccc1C1CC(=O)c2c(C)nc(N)nc2C1 (centres unmarked) — log fold enrichment (Coatomer subunit beta', WD repeat domain (Homo sapiens, UniProt P35606); binding, affinity selection mass spectrometry; baseline: other proteins in batch): -0.0483
O=C(Cc1ccc(-c2ccccc2)cc1)Nc1cc(C2CCC2)[nH]n1 — activity (IKBKB (Homo sapiens, UniProt O14920); inhibitor; concentration not given): inactive
Oc1ccc(/C=C/c2cc(O)cc(O)c2)cc1 — ΔH of binding (O-methyltransferase (Sorghum bicolor, UniProt A0A1B6PFV1); isothermal titration calorimetry; concentration not given, apo protein): -11.7 ± 0.378 kcal/mol
Cl.Nc1ncnc2nc[nH]c12 — koff (Nuclear receptor subfamily 2 group C member 2 ligand-binding domain; SPR imaging; 600 nM): 1.23e-07 s⁻¹
CN(C)C(=O)C(CCN1CCC(O)(c2ccc(Cl)cc2)CC1)(c1ccccc1)c1ccccc1 — effective gating valence (Calcium-activated potassium channel subunit alpha-1, with LRRC26 γ1 subunit (KCNMA1, Homo sapiens, UniProt Q12791); BK current, inside-out patch clamp; excised membrane patch; 3 µM, γ1 coexpressed, individual fits, added: nominally 0 Ca2+ cytosolic): 1.11 ± 0.12 elementary charges
CC[C@@H](C)[C@@H](NC(=O)[C@@H](Cc1ccc(O)cc1)NC(=O)[C@H]1CCCN1C(=O)[C@@H](CCCNC(=N)N)NC(=O)[C@H](N)Cc1c[nH]cn1)C(=O)N[C@H](C)C(=O)N[C@H](Cc1c[nH]cn1)C(=O)N[C@H](CCCNC(=N)N)C(=O)N[C@@H](C(=O)N[C@H](Cc1ccc(O)cc1)C(=O)N[C@H](CO)C(=O)N[C@H](Cc1ccccc1)C(N)=O)C(C)C — surface expression (Transferrin receptor protein 1 (Tfrc, Mus musculus, UniProt Q62351); flow cytometry; MC-38; 2 h, unit not given; baseline: 0 h): 0.94 and 0.931
O=C(O)c1cc(/N=N/c2ccc(S(=O)(=O)Nc3ccccn3)cc2)ccc1O — koff (Nuclear receptor subfamily 2 group C member 2 ligand-binding domain; SPR imaging; 600 nM): 8e-08 s⁻¹
Nc1ccc(C(=O)O)cc1 — current density (BEST1, with wild-type BEST1 (Homo sapiens, UniProt O76090, A243T); whole-cell patch clamp; HEK293 co-expressing WT and A243T mutant; concentration not given, membrane potential 100 mV): 33.2 pA/pF and 41.6 pA/pF and 33.7 pA/pF and 7.07 pA/pF and 11.1 pA/pF and 36.5 pA/pF and 38.4 pA/pF
CCNC(=O)/C=C/c1cccc(Br)c1 — remaining transport activity (SLC6A19 (Homo sapiens, UniProt Q695T7); inhibitor, L-[14C]leucine uptake; CHO-BC cells; 1 µM, 6 min, unit not given, added: GPNA 3 mM, JPH203 3 µM; baseline: uninhibited cells): 0.474
CC(C)C[C@@H]1NC(=O)[C@H](C(C)C)NC(=O)CNC(=O)[C@H](CC(N)=O)NC(=O)[C@@H]2CCCN2C(=O)[C@H](Cc2ccc(O)cc2)NC(=O)[C@H](CCCNC(=N)N)NC(=O)[C@H](Cc2ccccc2)NC(=O)[C@@H](NC(=O)[C@H](CCCCN)NC(=O)[C@H](C)NC(=O)[C@H](CO)NC(=O)[C@H](C)NC(=O)[C@@H](N)Cc2ccc(O)cc2)CSSC[C@@H](C(=O)N[C@H](C(N)=O)[C@@H](C)O)NC(=O)[C@H](C)NC1=O — -ΔH (AHSG asialo; binding, isothermal titration calorimetry; pH 7.0, 25 °C, added: asialofetuin): 2.38 kcal/mol
N#C[C@@H]1CCCN1C(=O)CNC12CC3CC(CC(O)(C3)C1)C2 — koff (Nuclear receptor subfamily 2 group C member 2 ligand-binding domain; SPR imaging; 600 nM): 1.4e-06 s⁻¹
Nc1nc2c(ncn2[C@@H]2O[C@H](COP(=O)(O)O)[C@@H](O)[C@H]2O)c(=O)[nH]1 — reaction rate (GUK1 (Homo sapiens, UniProt Q16774, S37A); enzyme activity, NADH-coupled; 250 µM): -0.155 s⁻¹ and 0.819 s⁻¹ and 1.18 s⁻¹
Clc1ccc(C(c2c[nH]c3ccccc23)c2c[nH]c3ccccc23)cc1 — necrotic cells (COS-7; 10 µM, 24 h, 0.1% DMSO, unit not given; baseline: vehicle control): 2.67 ± 0.2
Oc1ccc(OCc2ccccc2)cc1 — koff (Nuclear receptor subfamily 2 group C member 2 ligand-binding domain; SPR imaging; 600 nM): 6.42e-05 s⁻¹
CCCCCCCC/C=C\CCCCCCCC(=O)NCCc1ccc(O)c(O)c1 — Hill coefficient (Trpv1 (Mus musculus, UniProt Q704Y3, S511T); ion current, agonist, whole-cell patch clamp; S511T): 2.54 ± 0.44
Oc1ccccc1-c1n[nH]cc1-c1ccnc2ccccc12 — log2 fold change (Serine/threonine-protein kinase CBK1 (CBK1, Candida albicans, UniProt Q5AP53); kinase binding, MIB/MS competition; Candida albicans lysate; 1 µM; baseline: DMSO, negative = stronger binding): -0.03
COc1ccc2c(c1)C(=O)N(CCN1CCN(c3ccccc3OC)CC1)C2 — inhibition (DRD5; radioligand binding; concentration not given, added: [3H]SCH23390): 21.8%
CN(C)CCC(c1ccc(Br)cc1)c1ccccn1.O=C(O)/C=C\C(=O)O (centres unmarked) — koff (Nuclear receptor subfamily 2 group C member 2 ligand-binding domain; SPR imaging; 600 nM): 7.16e-07 s⁻¹

Excerpt of the above:
Oc1ccccc1-c1n[nH]cc1-c1ccnc2ccccc12 — log2 fold change (Serine/threonine-protein kinase CBK1 (CBK1, Candida albicans, UniProt Q5AP53); kinase binding, MIB/MS competition; Candida albicans lysate; 1 µM; baseline: DMSO, negative = stronger binding): -0.03
COc1ccc2c(c1)C(=O)N(CCN1CCN(c3ccccc3OC)CC1)C2 — inhibition (DRD5; radioligand binding; concentration not given, added: [3H]SCH23390): 21.8%
CN(C)CCC(c1ccc(Br)cc1)c1ccccn1.O=C(O)/C=C\C(=O)O (centres unmarked) — koff (Nuclear receptor subfamily 2 group C member 2 ligand-binding domain; SPR imaging; 600 nM): 7.16e-07 s⁻¹
